# Results collected from several papers.
# Compare with care: the assays were run in different laboratories. ± gives the spread as reported.
# Sample: plasma
# Route: oral
Structure (SMILES),assay,system,setting,AUC(0-24) [ng·h/mL]
CC(C)[C@H](N)C(=O)NCCCS(=O)(=O)O,,human,"340 mg capsule, day 14, fasted, multiple dosing",13800 ± 3350
CCS(=O)(=O)N1CC(CC#N)(n2cc(-c3ncnc4[nH]ccc34)cn2)C1,,healthy Chinese human subjects,"4 mg, single dose, mean",256
CC(C)[C@@H](CS(=O)(=O)C(C)C)N1C(=O)[C@@](C)(CC(=O)O)C[C@H](c2cccc(Cl)c2)[C@H]1c1ccc(Cl)cc1,,human,"60 mg, old tablet fasted",2310
CC(C)c1nc(CN(C)C(=O)N[C@H](C(=O)N[C@@H](Cc2ccccc2)C[C@H](O)[C@H](Cc2ccccc2)NC(=O)OCc2cncs2)C(C)C)cs1,,HIV-infected humans,"100 mg once daily, added: atazanavir 300 mg",7590
CC(C)(Sc1ccncc1-c1ccc(C#N)c2ccccc12)C(=O)O,,"human, male","2.5 mg once daily, day 14, added: febuxostat 80 mg once daily",34.6
Oc1ncnc2[nH]ncc12,,human male,"300 mg once daily, geometric LS mean",3690
O=c1[nH]c(=O)c(Cc2cccc(C(F)(F)F)c2)c([C@H]2CC[C@H](c3ccccc3)CC2)[nH]1,,human,"900 mg once daily, day 1, geometric mean",4760
CCN1C(=O)CNc2ncc(-c3ccc(-c4nc[nH]n4)nc3C)nc21,"LC-MS, noncompartmental",human,"10 mg twice daily, first dose",622
CC(C)(Sc1ccncc1-c1ccc(C#N)c2ccccc12)C(=O)O,,"human, male, Japanese","5 mg, day 6, fed, single dose",60.3
O=C(c1ccc(F)c(F)c1Nc1ccc(I)cc1F)N1CC(O)([C@@H]2CCCCN2)C1,,human,"60 mg, steady state",4340
CC[C@@H]1CN(C(=O)NCC(F)(F)F)C[C@@H]1c1cnc2cnc3[nH]ccc3n12,,human,"30 mg once daily, multiple doses, day 11, extended-release, steady state",641 ± 177
